Measurements from different studies.
Numbered parts are unrelated; each lists some results of a single study. Positions count from the first letter of the parent shown.

Set 1
Target: Ras GTPase-activating protein-binding protein 1, full length (G3BP1, Homo sapiens, UniProt Q13283)
Sequence of UniProt Q13283 (whole entry, looked up): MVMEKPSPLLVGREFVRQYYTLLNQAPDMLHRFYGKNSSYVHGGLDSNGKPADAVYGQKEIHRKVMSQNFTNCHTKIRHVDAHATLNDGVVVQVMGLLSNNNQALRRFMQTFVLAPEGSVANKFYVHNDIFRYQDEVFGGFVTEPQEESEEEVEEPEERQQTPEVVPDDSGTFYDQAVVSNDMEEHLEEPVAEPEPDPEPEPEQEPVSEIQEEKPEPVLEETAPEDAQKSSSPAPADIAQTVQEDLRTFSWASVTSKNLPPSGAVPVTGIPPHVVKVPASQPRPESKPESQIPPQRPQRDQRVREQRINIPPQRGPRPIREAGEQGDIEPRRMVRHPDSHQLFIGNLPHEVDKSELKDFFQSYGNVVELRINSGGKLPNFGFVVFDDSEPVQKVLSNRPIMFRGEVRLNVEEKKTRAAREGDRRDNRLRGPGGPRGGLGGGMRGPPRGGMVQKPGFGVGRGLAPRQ
Method: RNA Bind-n-Seq
Molecule type: RNA
Matrix: in vitro
Tested at: 200 nM
Notes: whole 134-nt RNA, ends assumed
Together with: 150 mM LiCl
Reference: input library
Direction: higher = stronger binding
Each molecule: 7-deaza-guanosine replaces G
All sequences stand within: GGGAGUUCUACAGUCCGACGAUC … UGGAAUUCUCGGGUGUCAAGG
Strand	log2 enrichment
CCUCAAGUCCUGUGCUACACAUCGUAUGUACCGAAUCGGGGUGGGUGGGGUGGAAAGUAUUAUGUUACGCCGUUCGGAUCUGCACUUCCA	-0.863
CUCAAGUCCUGUGCUACACAUCGUAUGUACCGAAUCGGGUUGGGUUGGUUGGGAAAGUAUUAUGUUACGCCGUUCGGAUCUGCACUUCCA	0.565
UUUUAGGAAGCUGCAGUAAAGGAAGAUGAAGAAGAAGUUUCAGAUAAGGGCAGUGAUUCUGAAGAAGAAGAAACCAAUAGAGAUUCCCAA	-2.01
UAGCAAGCCAAAUUACAGCAGCAGAUGGACCUGCAGAAAAAUCACAUUUUCCGUCUGACUCAAGGACUGCAAGAAGCUCUAGAUCGGGCU	-3.12
UUCUCUUCACUCCCACCAGUGCGGGUGGUCUUUGCAGUGACUAUGGAAGGCAGUGCACGGAAAGUCAUCACUGUCCGGUCAGCCCUCAUU	0.687
CAAGUCCUGUGCUACACAUCGUAUGUACCGAAUCGGCCCGGGGCCCGGGGCCCGGGAAAGUAUUAUGUUACGCCGUUCGGAUCUGCACUU	-0.439
GCAGGAAGUAAAAACAAAUGGAAAUUCUUCGGAUAGUGGCAGGGGUGGGGGUUGCUAAGGAAAGGGUGGGAUGGGAGUGGGUAAAGAGUU	-0.0659
ACCAUGCAGGUGGGCAUCUUUGGGAAGUGGGGCAAGGGUGGGAUAGGGAGGGGGGUAACACUUUGGGAACAGGUGGUCCCAGGUCGUUUC	0.344

Set 2
Target: Histone acetyltransferase KAT6A, winged helix 1, GST fusion (KAT6A, Homo sapiens, UniProt Q92794, residues 1-85)
Method: protein binding microarray
Molecule type: double-stranded DNA, one strand shown
Matrix: in vitro
Tested at: not given
Notes: 8-mer, flanks averaged, mean of 2 arrays, mostly near background
Reference: not given
Direction: higher = stronger binding
Residues (chain): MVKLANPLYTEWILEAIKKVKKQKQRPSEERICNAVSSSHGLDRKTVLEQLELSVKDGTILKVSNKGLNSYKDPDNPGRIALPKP
Strand	E-score
ACTTCTCC	-0.0814
ATGCTTCA	-0.0973
AGCTCGAC	-0.126
AGCTAAGC	0.00672
ACGCCCCT	-0.0419
CCTCACAG	-0.188
AATGGGTG	-0.35
ACAGCGAA	-0.0304
GGAATACC	0.0313
ACTCAACA	-0.132
ACCCCTCG	-0.094
GACGGAGA	0.272
ACCCAGCA	-0.0243
TTAGACAA	-0.00108
CCGGCTAG	0.219
ATCAAGAT	-0.192
AGTAGCAG	-0.213
ATGCTGAC	-0.205
AGTAATGG	-0.105
AGAGTTTA	-0.295
GCACTGGC	-0.00251
AAGCATGT	-0.106
ATAAGCCC	0.0182
CATACCTC	-0.229
AGCGCTGA	0.329

Set 3
Target: ABI1, truncated, D143A, DHFR fusion (Arabidopsis thaliana)
Method: DHFR PCA, deep sequencing
Matrix: yeast
Notes: methotrexate growth selection, single substitutions
Together with: (+)-ABA 0 µM
Reference: wild-type fitted maximum
Direction: higher = stronger binding
Parent: PYL1, truncated, DHFR fusion (Arabidopsis thaliana); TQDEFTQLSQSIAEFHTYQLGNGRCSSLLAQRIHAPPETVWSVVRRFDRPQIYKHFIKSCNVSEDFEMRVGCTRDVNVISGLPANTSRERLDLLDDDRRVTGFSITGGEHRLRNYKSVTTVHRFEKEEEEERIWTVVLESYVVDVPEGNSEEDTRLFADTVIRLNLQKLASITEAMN; partner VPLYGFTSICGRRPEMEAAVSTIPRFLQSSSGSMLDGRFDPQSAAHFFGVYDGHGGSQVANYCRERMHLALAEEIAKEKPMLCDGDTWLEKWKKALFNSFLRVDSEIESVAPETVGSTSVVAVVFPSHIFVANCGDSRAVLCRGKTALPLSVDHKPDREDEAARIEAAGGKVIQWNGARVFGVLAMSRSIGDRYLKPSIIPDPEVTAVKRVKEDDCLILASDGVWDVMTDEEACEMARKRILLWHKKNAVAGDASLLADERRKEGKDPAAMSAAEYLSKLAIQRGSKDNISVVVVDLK
Variant	relative binding score
D75W	20%
A175N	16.3%
F15N	-6.07%
I105A	-4.89%
K58T	8.32%
K54G	-0.74%
F157I	4.12%
S26M	-1.38%
N149R	13.5%
N149L	26.7%
T119W	-2.67%
A30V	10.3%
I105H	7.59%
E129T	22.1%
C72N	5.64%
G23Y	2.76%
T135E	-6.79%
E151L	17.6%
L91V	1.16%
R99F	58.5%

Set 4
Target: RNA binding protein fox-1 homolog 2, RRM domain, GST-SBP tag (RBFOX2, Homo sapiens, UniProt O43251-10, residues 100-194)
Method: RNA Bind-n-Seq
Molecule type: RNA
Matrix: in vitro
Tested at: 365 nM
Notes: natural RNA segment, single round, ends assumed
Reference: no-protein control
Direction: higher = stronger binding
All sequences stand within: GGGAGUUCUACAGUCCGACGAUC … UGGAAUUCUCGGGUGCCAA
Residues (chain): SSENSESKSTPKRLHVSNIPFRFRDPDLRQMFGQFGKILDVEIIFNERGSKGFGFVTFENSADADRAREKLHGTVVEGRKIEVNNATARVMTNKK
Strand	RBNS enrichment (R)
AGGGGUCCAAACAGAAAAUAACCGGAGAAGACAAGGAGGUCAAAGGAUCAGGGAACUAAGCAUUAUGUGAAUUCACCAGCAAGAUGUACAGAACGCCUGUGUUUACAUUG	0.807
CUCCUGCUUCUCCUUCCACUUGAGCUGGUUUGAGACUGGUUUCUGGAGGCUGUGGGGUGUAACUUUGGGUUUGUAUUUUUUCUGCUCAUCUUUCUGCCUGUCACCGGGUG	0.343
ACAAGAUAAAUUGAGCUAGUUAAGGCAAAUCAGGUAAAAUAGUCAUGAUUCUAUGUAAUGUAAACCAGAAAAAAUAAAUGUUCAUGAUUUCAAGAUGUUAUAUUAAAGAA	0.499
CUAACAUGCCCAGGUGGUGUCGGCUCAGAGGAUCCUAGCACCAUCUUAAGCAGGUGGGAGGCAGGGAAGGGUGCACCAGCGUGUCUUUCCCUGACUUUACAUGGUGUUUU	0.585
CAGUCAUCAGUGUGCCCUUGAAGCUAAGAGGGGAUUCCAGCCCAGGAAACGUCCCUAGGUAGGCUUGGUCAUUUGUGGGUUUUUCCCAGGCCUGACGUUAAGAAUGGUGA	0.398
CUGCCUUUUUACAGUCACCUGAACAAUGACCCAUCAUCUCUUGCUUGCUUGAAAUCUUGCUGAAAUGUUCUCAUUUCCUGUUUGCUGUAUGGGCUCGGGUGGGAUGUUUG	0.337
CAUCUUCUGAGAGGGCUUCUCAGCCUGGAAACUAUGGAAACAGCAUCAAAGAGAGAAAAGAAUGUGGGGCGAUUCCGCUGCUCCACACCCCCAGCGGCCCAUCCCACACC	0.502
GUACUGGCCACGAAAGGGUCUUGUGUAAAGUUACAUCAUCGGAGAGCGGUUUUUGAGCUUUCAAUAAGCUAUAGCUUUGUUUAUUUCACCUGUUCACUUACUGUAUAAUU	0.593

Set 5
Target: CCNF, cyclin fold, Cln2 fusion (human)
Method: yeast growth competition, sequencing
Matrix: yeast
Notes: strong parent motif
Reference: not given
Direction: higher = stronger binding
Parent: PLK5 docking peptide (human); IFRKVGQRLLTQC; partner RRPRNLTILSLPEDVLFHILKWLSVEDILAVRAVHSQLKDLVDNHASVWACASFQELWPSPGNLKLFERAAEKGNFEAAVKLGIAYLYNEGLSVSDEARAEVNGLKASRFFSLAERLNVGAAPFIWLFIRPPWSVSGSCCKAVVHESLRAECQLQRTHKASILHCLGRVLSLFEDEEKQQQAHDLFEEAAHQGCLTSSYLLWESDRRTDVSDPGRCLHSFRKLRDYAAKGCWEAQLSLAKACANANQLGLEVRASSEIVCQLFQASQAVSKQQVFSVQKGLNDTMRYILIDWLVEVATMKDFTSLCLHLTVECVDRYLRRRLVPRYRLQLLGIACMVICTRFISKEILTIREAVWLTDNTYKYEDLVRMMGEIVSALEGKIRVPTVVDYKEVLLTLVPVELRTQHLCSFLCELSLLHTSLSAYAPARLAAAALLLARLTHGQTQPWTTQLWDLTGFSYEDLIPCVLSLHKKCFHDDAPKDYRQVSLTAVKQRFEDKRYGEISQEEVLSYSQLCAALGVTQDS
Variant	normalised enrichment score
V5A	1.41
C13A	0.219
F2A	1.21
I1A	1.79
T11A	2.86
L9A	1.3
Q7A	2.71

Some of these lines once more (set 2):
Strand	E-score
ACCCAGCA	-0.0243
GGAATACC	0.0313
AGCTAAGC	0.00672
GACGGAGA	0.272
AGTAGCAG	-0.213
AGCGCTGA	0.329
AGTAATGG	-0.105
